Results collected from several papers.
± gives the spread as reported.

| SMILES | assay | test system | conditions | tissue uptake |
| --- | --- | --- | --- | --- |
| O=C([O-])CN1CCN(CC(=O)[O-])CCN(CC(=O)[O-])CCN(CC(=O)[O-])CC1.[64Cu+2] | – | healthy athymic nude mice, kidney | intravenous, 15 min | 6.81 %ID/g |
| CCCC[C@H](NC(=O)CN1CCC(NC(=O)CN2CCN(CC(=O)O)CCN(CC(=O)O)CCN(CC(=O)O)CC2)CC1)C(=O)N[C@H]1CC(=O)NCCCC[C@@H](C(N)=O)NC(=O)[C@H](Cc2c[nH]c3ccccc23)NC(=O)[C@H](CCCNC(=N)N)NC(=O)[C@@H](Cc2ccccc2)NC(=O)[C@H](Cc2c[nH]cn2)NC1=O [gallium-68 labelled] | – | C57BL/6J mice male B16-F10 tumour, muscle | 2 h post injection, unblocked | 0.1 %ID/g |
| O=C([O-])c1cccc(CN(CCN(Cc2cn(Cc3ccccc3)nn2)Cc2cccc(C(=O)[O-])n2)Cc2cn(Cc3ccccc3)nn2)n1.[64Cu+2] | – | healthy athymic nude mice, heart | intravenous, 4 h | 3.81 %ID/g |
| CCCC[C@@H]1NC(=O)[C@@H](NC(=O)[C@H](CCC(=O)O)NC(=O)CNC(=O)CN2CCN(CC(=O)O)CCN(CC(=O)O)CCN(CC(=O)O)CC2)CCCCNC(=O)C[C@@H](C(N)=O)NC(=O)[C@H](C(C)C)NC(=O)[C@@H]2CCCN2C(=O)[C@H](CCCNC(=N)N)NC(=O)CNC(=O)[C@H](Cc2c[nH]c3ccccc23)NC(=O)[C@H](CCCNC(=N)N)NC(=O)[C@@H](Cc2ccccc2)NC(=O)[C@H](Cc2c[nH]cn2)NC(=O)[C@H](CCC(=O)O)NC1=O [gallium-67 labelled] | – | C57 mice with B16/F1 melanoma, heart | intravenous, 4 h | 0.05 ± 0.02 %ID/g |
| CC(C)[C@H](NC(=O)[C@@H]1CCCN1C(=O)[C@H](CCCNC(=N)N)NC(=O)[C@H](CS)NC(=O)[C@H](Cc1c[nH]c2ccccc12)NC(=O)[C@H](CCCNC(=N)N)NC(=O)[C@@H](Cc1ccccc1)NC(=O)[C@H](Cc1c[nH]cn1)NC(=O)[C@H](CCC(=O)O)NC(=O)[C@H](CS)NC(=O)[C@H](CS)NC(=O)[C@@H]1CC(=O)N[C@@H](CCCNC(=N)N)C(=O)NCC(=O)N[C@@H](CC(=O)O)C(=O)N[C@H](Cc2ccc(O)cc2)C(=O)N1)C(N)=O [technetium-99m labelled] | – | C57 mice B16/F1 melanoma female, muscle | iv, 2 h, added: NDP-MSH 10 µg co-injected | 0.24 ± 0.03 %ID/g |
| O=C([O-])CN1CCN(CC(=O)[O-])CCN(CC(=O)NCCc2ccc3c(c2)C2C=CCC2C(c2cc4c(cc2Br)OCO4)N3)CCN(CC(=O)[O-])CC1.[111In+3] (centres unmarked) | – | mice with Hec50 tumour xenograft, urinary bladder | 0.5 h | 4.13 ± 0.39 %ID/g |
| N#C[C@@H]1CCCN1C(=O)CNC(=O)c1ccnc2ccc(OCCCN3CCN(C(=O)CCc4ccc5c(c4)CN4CCN6CC(=O)[O][68Ga-]([O]C(=O)C4)([O]5)[O]c4ccc(CCC(=O)N5CCN(CCCOc7ccc8nccc(C(=O)NCC(=O)N9CCC[C@H]9C#N)c8c7)CC5)cc4C6)CC3)cc12 | – | BALB/c nude mice, U-87 MG xenograft, tumour | 1 h, blocked 60 min, added: DOTA-FAPI-04 40 nmol co-injected | 3.05 ± 0.61 %ID/g |
| NC12CNCCNCC(NCc3ccc(CNC(=O)CCCC(=O)NCc4ccc(-c5nncnn5)cc4)cc3)(CNCCNC1)CNCCNC2.[64Cu+2] | – | athymic nude mice, SW1222 xenograft, lung | 24 h post-injection, 24 h pretargeting interval, added: huA33-TCO pretargeting | 0.99 ± 0.24 %ID/g |
| CCCC[C@H](NC(=O)CNC(=O)CNC(=O)CN1CCN(CC(=O)O)CCN(CC(=O)O)CCN(CC(=O)O)CC1)C(=O)N[C@H]1CC(=O)NCCCC[C@@H](C(N)=O)NC(=O)[C@H](Cc2c[nH]c3ccccc23)NC(=O)[C@H](CCCNC(=N)N)NC(=O)[C@@H](Cc2ccccc2)NC(=O)[C@H](Cc2c[nH]cn2)NC1=O [gallium-67 labelled] | – | female C57 mice, B16/F1 melanoma, bone | intravenous, 0.037 MBq, 0.5 h | 1.44 ± 0.63 %ID/g |
| N=C(N)NCCC[C@@H]1NC(=O)[C@H](CCCCNC(=O)CON=C[C@H](F)[C@@H](O)[C@H](O)[C@H](O)CO)NC(=O)[C@@H](Cc2ccc(O)cc2)NC(=O)[C@H](CC(=O)O)NC(=O)CNC1=O [fluorine-18 labelled] | – | nude mice U-87 MG tumour, brain | intravenous, 0.5 h | 0.8 ± 1.09 %ID/g |
| CN1C(=O)[C@@H](Cc2ccc(O)c(I)c2)NC(=O)CNC(=O)[C@H](Cc2ccc3ccccc3c2)NC(=O)[C@H](CCCNC(=N)N)NC(=O)[C@H]1CCCNC(=O)c1ccc(CNC(=O)CN2CCN(CC(=O)O)CCN(CC(=O)O)CCN(CC(=O)O)CC2)cc1 [lutetium-177 labelled] | item: 177Lu radioactivity | female CB-17 SCID mice, Daudi xenograft, tumor | intravenous, 0.16 nmol per mouse, 48 h | 3.27 ± 0.41 %ID/g |
| CCCC[C@H](NC(=O)CNC(=O)CNC(=O)CN1CCN(CC(=O)O)CCN(CC(=O)O)CC1)C(=O)N[C@H]1CC(=O)NCCCC[C@@H](C(N)=O)NC(=O)[C@H](Cc2c[nH]c3ccccc23)NC(=O)[C@H](CCCNC(=N)N)NC(=O)[C@@H](Cc2ccccc2)NC(=O)[C@H](Cc2c[nH]cn2)NC1=O [gallium-67 labelled] | – | female C57 mice, B16/F1 melanoma, spleen | intravenous, 0.037 MBq, 0.5 h | 1.25 ± 0.11 %ID/g |
| N=C(N)NCCC[C@H](NC(=O)CON=C[C@H](F)[C@@H](O)[C@H](O)[C@H](O)CO)C(=O)NCC(=O)N[C@@H](CC(=O)O)C(=O)O [fluorine-18 labelled] | – | nude mice U-87 MG tumour, brain | intravenous, 0.5 h | 0.58 ± 0.04 %ID/g |
| O=C(NCC1OC2CCC=CCCC2O1)c1ccc([18F])nc1 (centres unmarked) | ex vivo biodistribution | BALB/c nude mice, female, LS174T xenograft, tumour | intravenous, 7.4 MBq, 60 min, added: unmodified CC49 antibody 24 h before | 0.78 ± 0.24 %ID/g |

Repeated from above:
| SMILES | assay | test system | conditions | tissue uptake |
| --- | --- | --- | --- | --- |
| CC(C)[C@H](NC(=O)[C@@H]1CCCN1C(=O)[C@H](CCCNC(=N)N)NC(=O)[C@H](CS)NC(=O)[C@H](Cc1c[nH]c2ccccc12)NC(=O)[C@H](CCCNC(=N)N)NC(=O)[C@@H](Cc1ccccc1)NC(=O)[C@H](Cc1c[nH]cn1)NC(=O)[C@H](CCC(=O)O)NC(=O)[C@H](CS)NC(=O)[C@H](CS)NC(=O)[C@@H]1CC(=O)N[C@@H](CCCNC(=N)N)C(=O)NCC(=O)N[C@@H](CC(=O)O)C(=O)N[C@H](Cc2ccc(O)cc2)C(=O)N1)C(N)=O [technetium-99m labelled] | – | C57 mice B16/F1 melanoma female, muscle | iv, 2 h, added: NDP-MSH 10 µg co-injected | 0.24 ± 0.03 %ID/g |
